Published values of several laboratories.
Every numbered part comes from another study and shows a few of its results, in no order.

Sample 1 — technique: protein binding microarray; molecule type: double-stranded DNA, one strand shown; medium: in vitro; tested at: not given; reference: not given; direction: higher = stronger binding
Target: Histone acetyltransferase KAT6A, winged helix 1, GST fusion (KAT6A, Homo sapiens, UniProt Q92794, residues 1-85)
Setting: 8-mer, flanks averaged, mean of 2 arrays, mostly near background
Target sequence (chain): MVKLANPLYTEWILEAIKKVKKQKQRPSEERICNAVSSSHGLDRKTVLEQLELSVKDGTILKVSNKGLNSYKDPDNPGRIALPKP
The E-score of `CCGTGGAA` is reported as 0.252.
`CGATATCG` has an E-score of 0.108.
`CACAACAG` has an E-score of -0.126.
For `ATGACCTA`, the E-score was -0.138.
`GGCGTTTA` has an E-score of 0.187.
For `CACTCAAC`, the E-score was -0.139.
`CAAGAGGG` has an E-score of -0.241.
`CACCCATG` gave an E-score of -0.077.
For `GGAGAGGA`, the E-score was -0.125.
For `GGCCGGCC`, the E-score was 0.354.
The E-score of `AGCTCTAA` is reported as -0.129.
For `AGATGCCG`, the E-score was 0.284.
For `CGCAGTAG`, the E-score was 0.131.
With `CCAACAAC` the E-score was -0.229.
`GGCTGGCA` gave an E-score of 0.0846.
With `GATAAGAC` the E-score was -0.0643.
With `CAGGCGTA` the E-score was -0.0063.
`GCACTCCC` gave an E-score of 0.116.
With `ACCTCTTA` the E-score was 0.0092.
For `AGGGGCAG`, the E-score was -0.171.
The E-score of `AGGCCGAA` is reported as -0.015.
With `CTACCGGA` the E-score was 0.0669.
The E-score of `CATAGACC` is reported as -0.0119.
With `ACGCTCTA` the E-score was 0.116.
With `ACCACTTA` the E-score was -0.0954.

Sample 2 — technique: RNA Bind-n-Seq; molecule type: RNA; medium: in vitro; tested at: 365 nM; reference: no-protein control; direction: higher = stronger binding
Target: RNA binding protein fox-1 homolog 2, RRM domain, GST-SBP tag (RBFOX2, Homo sapiens, UniProt O43251-10, residues 100-194)
Setting: natural RNA segment, single round, ends assumed
Construct (chain): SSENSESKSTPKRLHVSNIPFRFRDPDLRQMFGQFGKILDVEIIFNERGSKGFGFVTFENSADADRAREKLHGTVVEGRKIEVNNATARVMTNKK
`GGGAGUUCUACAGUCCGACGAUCUUCUGCGCUGACUGUGACAUUGGAACGUGGCCUUCCUGUCACCCCCUCCGUGCCACGCACUGAAGGCCACCCCCACCCACCUGGGAAACUAAGAACUGGAUAUUUUGCCUUGGAAUUCUCGGGUGCCAA` — result for “RBNS enrichment (R)”: 0.883.
Under “RBNS enrichment (R)”, `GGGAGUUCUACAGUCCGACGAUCGACAGACCUCAGCAAGGGUGUGAUUGAGGAGCCCAAGUACGCCUGCGCUUGCGUGGUGGAUCCAACACCAGCCCUGCGUCGUGGGACUUGCCUCAGAUCAGCCUGCGACUUGGAAUUCUCGGGUGCCAA` is recorded as 0.383.
`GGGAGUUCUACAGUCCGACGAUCGGGAUCAGCCCACUGACAGACCUUAAUCUUAAUUACUGCUGUGGCUAGAGAGUUUGAGGAUUGCUUUUUAAAAAAGACAGCAAACUUUUUUUUUUAUUUAAAAAAAGAUAUGGAAUUCUCGGGUGCCAA` — result for “RBNS enrichment (R)”: 0.707.
Under “RBNS enrichment (R)”, `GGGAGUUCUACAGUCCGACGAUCUGCUUUUGAGGCCCUCCCUCAGCUCUCUGUGGGUAGGGGUUACAAUUCACAUUCCUUAUUCUGAGAAUUUGGCCCCAGCUGUUUGCCUUUGACUCCCUGACCUCCAGAGCUGGAAUUCUCGGGUGCCAA` is recorded as 0.411.
`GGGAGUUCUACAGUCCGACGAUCAUUUUAAAUAAGACUAAGUAUAGGCAUUGUACCUGACAUUGCUACGUUUCUACCAGUGUUUCAAUUUAAAGUGCUAGUGUUUAAAAACAUUUUCAAGGGAUAAGGCCUUCUGGAAUUCUCGGGUGCCAA`: “RBNS enrichment (R)” 0.322.
`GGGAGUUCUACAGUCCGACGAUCAGCAGUCACCUGCUGUCACUAGUGCAUGGGAAGACAGAUGCACAGAAGAGCCAGGUAGCACCUGAAAACGCUGCACGUGUGUUUGUGAAACCUGUAGUGAAGUAGACUUGUGGAAUUCUCGGGUGCCAA`: “RBNS enrichment (R)” 0.915.
For `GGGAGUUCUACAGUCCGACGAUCAUAUUUUCCCUCUCUUGCCUUUCUUAUUUGCAAUAAAAGGUAUUGAGCCAUUUUUUAAAUGACAUUUUUGAUAAAUUAUGUUUGUACUAGUUGAUGAAGGAGUUUUUUUUUGGAAUUCUCGGGUGCCAA`, “RBNS enrichment (R)” read 0.807.
`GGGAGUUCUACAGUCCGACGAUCUCUGUAGACCGAUUGGAUGUAUGUGGAGGCUGGCCAGAUGGCAACUGAUGACUUGUGUGCAAACAAGUGUUUAUCCGGGUUGCAUUAUCCAAACUGGUUUGUUAAAAACUUGGAAUUCUCGGGUGCCAA` — result for “RBNS enrichment (R)”: 0.541.

Sample 3 — technique: RNA Bind-n-Seq; molecule type: RNA; medium: in vitro; tested at: 200 nM; setting: whole 134-nt RNA, ends assumed; added: 150 mM KCl; reference: input library; direction: higher = stronger binding
Target: Ras GTPase-activating protein-binding protein 1, full length (G3BP1, Homo sapiens, UniProt Q13283)
Sequence of UniProt Q13283 (whole entry, looked up): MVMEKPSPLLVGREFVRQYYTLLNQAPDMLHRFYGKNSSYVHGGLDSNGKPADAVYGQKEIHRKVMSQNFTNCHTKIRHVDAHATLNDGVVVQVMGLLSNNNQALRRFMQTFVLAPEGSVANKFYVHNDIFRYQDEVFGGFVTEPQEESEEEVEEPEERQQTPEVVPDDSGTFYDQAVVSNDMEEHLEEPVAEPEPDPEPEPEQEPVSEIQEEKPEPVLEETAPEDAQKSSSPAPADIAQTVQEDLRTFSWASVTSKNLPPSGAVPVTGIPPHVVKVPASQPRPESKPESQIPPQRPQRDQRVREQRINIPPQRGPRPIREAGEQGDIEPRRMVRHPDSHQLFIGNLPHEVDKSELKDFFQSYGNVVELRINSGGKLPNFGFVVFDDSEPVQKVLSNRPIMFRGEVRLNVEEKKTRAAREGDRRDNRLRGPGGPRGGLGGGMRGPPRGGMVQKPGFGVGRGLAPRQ
`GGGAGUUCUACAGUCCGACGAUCUCCUGUGCUACACAUCGUAUGUACCGAAUCAAAUUUUUAAACCCCCCCAAAUUUUUAAAAAAGUAUUAUGUUACGCCGUUCGGAUCUGCAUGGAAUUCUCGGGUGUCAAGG` gave a log2 enrichment of 0.37.
`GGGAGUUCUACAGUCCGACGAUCGCAGGAAGUAGAAACAAAUGGAAAUGCUUCGGAUAGUGGCAGGGGUGGGGGUUGCUAAGGAAAGGGUGGGAUGGGAGUGGGUAAAGAGUUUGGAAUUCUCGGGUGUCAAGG` has a log2 enrichment of 1.3.
With `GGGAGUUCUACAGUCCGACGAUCUCAAGUCCUGUGCUACACAUCGUAUGUACCGAAUCGGAAAGGUGGUUUUUUUGGAAAGUAUUAUGUUACGCCGUUCGGAUCUGCACUUCCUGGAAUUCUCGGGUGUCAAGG` the log2 enrichment was -1.14.
The log2 enrichment of `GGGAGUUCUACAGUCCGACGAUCUGGGAGGUGGAUUUUGUUUAUUUUUUUAGCUCAUUUCCAGGGGUGGGAAUUUUUUUUUGAUAUGUGUCAUGAAUAAAGUUGUUUUUGAAAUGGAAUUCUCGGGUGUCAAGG` is reported as 0.31.
For `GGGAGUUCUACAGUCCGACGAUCUUCCCUCUGUUUUAUUUUUCCCCCGUGUGUCCCUACUAUGGUCAGAAAGCCUGUUGUGUCCACCAUCUCCAAAGGAGGUUACCUGCAGGGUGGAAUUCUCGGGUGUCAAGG`, the log2 enrichment was 0.0407.
The log2 enrichment of `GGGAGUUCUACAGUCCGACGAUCAGUCCUGUGCUACACAUCGUAUGUACCGAAUCGGGUUUGGGAAAGGGAAAAAAAGGGAAAGUAUUAUGUUACGCCGUUCGGAUCUGCACUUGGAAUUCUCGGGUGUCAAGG` is reported as -0.11.
`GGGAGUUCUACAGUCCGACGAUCGCAGGAAGUAAAAACAAAUGGAAAUGCUUCGCAUAGUGGCAGGGGUGGGGGUUGCUAAGGAAAGGGUGGGAUGGGAGUGGGUAAAGAGUUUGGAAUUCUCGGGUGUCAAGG` has a log2 enrichment of 1.35.
For `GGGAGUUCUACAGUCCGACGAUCUGGGAGGUGGAUUUUGUUUAUUUUUUAAGCUCAUUUCCAGGGGUGGGAAUUUUUUUUUAAUAUGUGUCAUGAAUAAAGUUGUUUUUGAAAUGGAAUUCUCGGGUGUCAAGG`, the log2 enrichment was 0.0519.
For `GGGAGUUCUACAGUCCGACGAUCCACAGACAACACGCACCCACACAGACACAGAGGGAAGGGGUUGGGAUGGGGACAGGGUGCACAGCAGGGCUGGGUAGGACCCCAGCCCCUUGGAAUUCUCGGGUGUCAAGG`, the log2 enrichment was 1.98.

Sample 4 — technique: RNA Bind-n-Seq; molecule type: RNA; medium: in vitro; tested at: not given; reference: input RNA pool; direction: higher = stronger binding
Target: RING finger protein unkempt homolog, zinc fingers 1-6, GST-SBP tag (UNK, Homo sapiens, UniProt Q9C0B0, residues 30-357)
Setting: RNA with constant flanks, human and mouse sites, ends assumed
Construct (chain): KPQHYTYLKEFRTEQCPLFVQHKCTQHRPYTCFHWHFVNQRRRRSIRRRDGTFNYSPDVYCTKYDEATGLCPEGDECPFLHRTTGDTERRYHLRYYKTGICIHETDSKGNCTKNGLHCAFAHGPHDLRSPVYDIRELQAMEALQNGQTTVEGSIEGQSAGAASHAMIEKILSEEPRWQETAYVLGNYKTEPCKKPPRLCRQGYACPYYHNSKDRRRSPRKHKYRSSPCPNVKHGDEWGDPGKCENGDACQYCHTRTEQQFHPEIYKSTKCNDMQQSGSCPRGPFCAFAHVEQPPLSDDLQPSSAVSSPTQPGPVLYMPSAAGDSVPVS
With `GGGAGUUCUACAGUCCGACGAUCGGUAAGCUCAUCGCAGUGAUCGGAGACGAGGACACGGUGACUGGUUUCCUGCUGGGCGGCAUAGGGGAGCUUAACAAGAACCGCCAUCCCAAUUUCCUGGUGGUGGAGAAGGAUACAACCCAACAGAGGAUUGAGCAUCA` the bound/input enrichment was 0.174 ratio.
With `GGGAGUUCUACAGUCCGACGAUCGUAGAAUUCCAGAAGACGGUGAAGCUUAUGUACUACCUAUGGAUGUUCCAUGCAGUGACCCUGUUUCUGAACAUCUUCGGAUGCUUGGCCUGGUUUUGUGUUGAUUCCUCGAGAGCAGUCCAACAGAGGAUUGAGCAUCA` the bound/input enrichment was 0.0873 ratio.
The bound/input enrichment of `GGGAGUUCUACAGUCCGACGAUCCCUAAGCAGACCUCCUCCUACAACAUCCCUGCCUCUGCCAGCAUCUCUCGGACAUCCAUUAGCAGAUAUGACUCUUCCUUCAGGUACACAGGCAGCCCAGACAGCCUCCGGUCCCGGGUCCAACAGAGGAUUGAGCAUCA` is reported as 1.39 ratio.
`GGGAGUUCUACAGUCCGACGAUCAUCUCCAAGUUUAAAAAGUUUGAGGUACAGAGGGAAGGCCAGAUUUUUUUAAUGAAAUUAUAUAGAUUAGAUCUCAGUAUUUAAACUGUUCCUCAAUUUUGUGAGGCUGUGUUGGAAAUACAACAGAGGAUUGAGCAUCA` has a bound/input enrichment of 2.41 ratio.
For `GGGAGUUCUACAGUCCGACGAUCUCAAGUGGACAUGAAGGAAGGGGUGGGGGGAGGGGCGGGUUUUUUUUUUUUCAAUAUAAGUAGCACAUGGUUUAAAUAUGAAUGACUGAACUUGUGAUCUAGUCCUUGUCUGGUAAUUGUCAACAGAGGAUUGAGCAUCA`, the bound/input enrichment was 23.7 ratio.
`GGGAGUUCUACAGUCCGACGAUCAAAUUAACUGAGCUAUAUAAUGCUUAUGUGGAAACUCAGGAUCAGUUGCUUUUGGAAAAACAAGAAAAUAAAAGGAUUAAUAAGUAUCUGGAUGAGAUAGUAAAAGAAGUGGAAGCCAAACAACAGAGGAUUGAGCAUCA` gave a bound/input enrichment of 0.563 ratio.
The bound/input enrichment of `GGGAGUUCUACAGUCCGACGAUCCUUUGUGUUCAUGGUGGACUUUCACCAGAAAUACACACACUGGAUGAUAUUAGGAGAUUAGAUAGAUUCAAAGAGCCACCUGCAUUUGGACCAAUGUGUGACUUGUUAUGGUCCGAUCCUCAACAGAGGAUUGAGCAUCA` is reported as 9.18 ratio.
`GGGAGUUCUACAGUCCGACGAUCCCCCGGCAAGCCACAGGAAGGAGGGGAGAGACAGGCAGCCCAGCAGUGUGGAGACCCUGCCACAGCCAGAGGAGGGCAGAGGGAGAAUCCAAGGGUUGAGAGCCAGUGGCGGGUGAUGGCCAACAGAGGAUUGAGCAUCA` gave a bound/input enrichment of 0.288 ratio.

Some of these lines once more (sample 1):
`GGCTGGCA` gave an E-score of 0.0846.
With `GATAAGAC` the E-score was -0.0643.
With `CAGGCGTA` the E-score was -0.0063.
`GCACTCCC` gave an E-score of 0.116.
